Results pooled from the literature.
Numbered parts are unrelated; each lists some results of a single study. Positions count from the first letter of the parent shown.

Study 1
Target: Sal-like protein 4, full length isoform A (SALL4, Homo sapiens, UniProt Q9UJQ4, residues 1-1053)
Chain of UniProt Q9UJQ4 (whole entry, looked up): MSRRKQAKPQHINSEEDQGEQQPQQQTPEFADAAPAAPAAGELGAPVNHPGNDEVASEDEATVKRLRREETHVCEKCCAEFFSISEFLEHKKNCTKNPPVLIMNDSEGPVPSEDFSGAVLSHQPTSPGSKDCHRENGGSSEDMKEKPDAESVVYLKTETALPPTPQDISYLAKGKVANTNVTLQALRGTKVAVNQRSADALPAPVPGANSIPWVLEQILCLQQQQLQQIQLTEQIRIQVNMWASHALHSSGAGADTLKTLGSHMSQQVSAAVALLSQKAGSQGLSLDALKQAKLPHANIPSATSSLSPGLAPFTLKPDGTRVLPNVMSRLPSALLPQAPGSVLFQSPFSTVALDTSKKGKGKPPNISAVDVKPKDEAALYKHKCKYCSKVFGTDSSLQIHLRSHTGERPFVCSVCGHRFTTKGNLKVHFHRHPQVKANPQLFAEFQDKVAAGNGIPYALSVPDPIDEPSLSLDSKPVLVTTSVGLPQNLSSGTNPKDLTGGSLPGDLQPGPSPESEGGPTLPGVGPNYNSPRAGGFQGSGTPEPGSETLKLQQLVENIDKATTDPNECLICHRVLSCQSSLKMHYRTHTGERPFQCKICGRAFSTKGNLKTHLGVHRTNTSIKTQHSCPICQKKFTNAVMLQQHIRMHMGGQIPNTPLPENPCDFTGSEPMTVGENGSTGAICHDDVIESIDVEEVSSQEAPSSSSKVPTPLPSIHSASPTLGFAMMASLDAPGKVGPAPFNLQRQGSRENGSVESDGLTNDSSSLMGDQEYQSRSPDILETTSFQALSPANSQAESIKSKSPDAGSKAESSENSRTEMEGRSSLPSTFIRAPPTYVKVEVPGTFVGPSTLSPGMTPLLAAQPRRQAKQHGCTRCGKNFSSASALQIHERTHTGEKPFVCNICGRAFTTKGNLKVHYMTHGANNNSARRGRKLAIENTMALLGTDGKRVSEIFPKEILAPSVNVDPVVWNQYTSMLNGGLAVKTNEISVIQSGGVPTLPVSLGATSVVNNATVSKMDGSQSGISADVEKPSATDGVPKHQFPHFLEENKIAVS
Method: universal PBM
Molecule type: double-stranded DNA, one strand shown
Matrix: in vitro
Concentration: 600 nM
Notes: 8-mer, flanks averaged, mean of replicates
Reading: higher = stronger binding
Oligonucleotide | E-score
GACTTAGA | 0.0204
AACATTAC | 0.221
ATAATTTC | 0.359
AACGCGGT | -0.11
CTCTGAGA | -0.052
GAGTGTAC | -0.0931
AAAAGGAA | 0.173
GTGTAGGA | 0.0472
CACTTCTA | -0.0469
CACAACAG | 0.0264
GATAGAGC | -0.0543
CCACGGGG | -0.402
GGGGAATA | 0.0505
CACCCACA | -0.091
AGTCCGCG | -0.224
ACGTGAAT | -0.0155
AAACCCGT | -0.163
ACAAGTGT | -0.0387
CAAACATG | 0.19
CTCTTTGA | 0.0503
CTCACAAA | 0.135
AGGCAATA | 0.255
AATTAGTC | 0.243

Study 2
Target: Interferon regulatory factor 7, full length, phosphomimetic (IRF7, Homo sapiens, UniProt Q92985, residues 1-503, S101K/S471D/S472D/S475D/S476D/S477D/S483D/S484D/S487D)
Method: protein-binding microarray
Molecule type: double-stranded DNA, one strand shown
Matrix: in vitro
Concentration: 250 nM
Notes: 60-bp whole probe
Added: salmon DNA 0.4 mg/ml
Relative to: random background probes
Reading: higher = stronger binding
Shared flanks, not repeated: GCCTAGCAC … GTCTTGATTCGCTTGACGCTGCTG
Target sequence (chain): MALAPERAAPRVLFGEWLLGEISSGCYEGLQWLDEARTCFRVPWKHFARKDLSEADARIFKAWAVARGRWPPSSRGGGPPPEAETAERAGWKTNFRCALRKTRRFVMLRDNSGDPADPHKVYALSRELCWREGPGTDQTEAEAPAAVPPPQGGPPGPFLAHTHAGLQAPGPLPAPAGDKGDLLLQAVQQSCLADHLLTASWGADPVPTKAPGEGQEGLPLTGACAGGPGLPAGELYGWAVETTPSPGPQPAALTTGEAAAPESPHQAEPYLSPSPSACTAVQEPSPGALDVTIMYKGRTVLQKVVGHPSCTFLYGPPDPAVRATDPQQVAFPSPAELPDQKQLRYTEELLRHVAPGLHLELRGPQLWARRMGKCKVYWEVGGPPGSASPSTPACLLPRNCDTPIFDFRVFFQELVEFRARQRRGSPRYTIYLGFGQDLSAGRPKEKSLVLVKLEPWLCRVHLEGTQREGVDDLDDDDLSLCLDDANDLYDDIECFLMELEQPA
Oligonucleotide | log fluorescence
GACGATCTCAGTATCGACACGTGCTAG | -0.118 z-score
TTAGGTTTCCTTTGCCTTTAGTGCTAG | 2.33 z-score
GACGAACTTAGACTGGAGACGTGCTAG | -0.219 z-score
GACGATCTCAGACTGAAGACGTGCTAG | -0.145 z-score
GTAGATTTCAGACTGGATTAGTGCTAG | 0.00066 z-score
TTCGGACTGCTACTGCTTTAGTGCTAG | -0.604 z-score
GACGGTATCGGACTGGCGACGTGCTAG | -0.568 z-score
ATAGGTATCGGACTGGGTTAGTGCTAG | 0.277 z-score
TTGGGTTTCGGTTTCGGTTAGTGCTAG | 14.2 z-score
GACGGTATCGTTATCGGGACGTGCTAG | 1.18 z-score
GTAGGACTGCTTATCCTTTAGTGCTAG | -0.186 z-score
GACTATATCAGTCTCGAGACGTGCTAG | 0.555 z-score
TTAGGTTTCGACTTGCGGTTAGTGCTA | 12.1 z-score
TCACTTACCTCACTCGTACTGTGCTAG | 0.534 z-score
GACGGTATCGGTTTCGGTACGTGCTAG | 7.99 z-score
AACGGTATCGGACTGGGGACGTGCTAG | -0.0867 z-score

Study 3
Target: RING finger protein unkempt homolog, zinc fingers 1-6, GST-SBP tag (UNK, Homo sapiens, UniProt Q9C0B0, residues 30-357)
Chain of UniProt Q9C0B0 (30-357, looked up): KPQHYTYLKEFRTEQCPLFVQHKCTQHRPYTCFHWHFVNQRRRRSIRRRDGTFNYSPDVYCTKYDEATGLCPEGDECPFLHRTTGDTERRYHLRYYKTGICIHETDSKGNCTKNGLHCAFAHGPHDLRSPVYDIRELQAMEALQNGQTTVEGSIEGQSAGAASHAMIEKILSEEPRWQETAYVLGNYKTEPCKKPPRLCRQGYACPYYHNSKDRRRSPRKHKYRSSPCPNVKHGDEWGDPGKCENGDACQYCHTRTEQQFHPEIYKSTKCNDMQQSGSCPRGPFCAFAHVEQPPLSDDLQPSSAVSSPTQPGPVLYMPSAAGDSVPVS
Method: RNA Bind-n-Seq
Molecule type: RNA
Matrix: in vitro
Concentration: not given
Notes: RNA with constant flanks, human-mouse chimeric sites, ends assumed
Relative to: input RNA pool
Reading: higher = stronger binding
Oligonucleotide | bound/input enrichment [ratio]
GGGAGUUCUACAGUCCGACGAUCAAAGAGUGGAUAGAGUGUGCACACGGGAUCGGUGGGACCCGGGCGAAGAAAGAGUGCAAGAUAGAGUUCGAUGACUUCGAAGAGUGCUUGCUUCGGUACAAAACGAUGAGGCGAAUGCAUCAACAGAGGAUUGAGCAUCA | 0.312
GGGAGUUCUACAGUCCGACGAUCUUAAUCCCCUUUACUGCUCCCCCACUUCUCAUGGUAAUAACAAAGUCUUAUAUCCCCGUCCUAGCUUUUACUCAGAUGGCUUAUGGAGCCGGUUUCCUAGCUUUCUUGGGAGGGAUCAGACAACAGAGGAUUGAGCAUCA | 0.671
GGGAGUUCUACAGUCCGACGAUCUCUUAACUUAUUCAUUUAACUUAUUUUUAUAGCUAGAUAAAUAUUGUUAGUCUUAGUCAAUAGCUCACAUUUUUUGAGAAGCAUGCCCUCCCUGUCCAUUUGUCUUAUAACAUGACCCAGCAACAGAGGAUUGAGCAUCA | 27.5
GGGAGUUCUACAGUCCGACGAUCGUACUGCAGCAGCAGGGAAAACUGCAGGAAGCACUGAUGCAUUAUAAGGAGGCUAUUCGAAUUAGUCCUACCUUUGCUGAUGCCUACUCUAAUAUGGGAAACACUCUAAAGGAGAUGCAGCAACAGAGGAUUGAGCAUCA | 0.317
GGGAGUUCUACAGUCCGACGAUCUCUUAACUUAUUCAUUUAACUUAUUUUUAUAGCUAGAUAAAUAUUGUUAGUCUUAGACAAUAGCUCACAUUUUUUGAAAAGCAUGCUCUCCCUAUCCAUUUGUCUUAUAACAUGACCCAGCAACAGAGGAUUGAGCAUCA | 12.5
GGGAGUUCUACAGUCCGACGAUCUUACCCGAGAACGAGGAUGAGCUGGAGAGCACCAACAGGCGCUACACCAAGAGGGACUGCAGCACUUUUCUCAGAACUAGCGAGACGGGCAUCGUGGACCAGGUCAUGGUCACUCUCAACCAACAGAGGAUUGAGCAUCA | 0.17
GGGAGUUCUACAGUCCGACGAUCACCAUUUUCGCGGUUCAGGCUUUGUGUUGUAUUUACUUACGGUAUUAAAUUAUUAUUGCCCUUAGUUUAUAAUAAGGAUAAUUGCAUUUAAAGAGGUUACUGAAUGUUACUCUGAAACUUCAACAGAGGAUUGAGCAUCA | 0.423
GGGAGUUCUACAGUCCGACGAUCGAGUCGAGCAAACUUGAAACAAUUCGUUAUCUUGCAGAGCUUCGGUGCACUUGCUUGGCGAUAGCAUUGGGGUUUUAUAGGUUCUGGAAGGAGAACUGACGAUGAUGUCCUGCUGUGUGCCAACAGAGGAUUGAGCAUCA | 0.192
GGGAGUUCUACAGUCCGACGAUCUUACCCGAGAACGAGGAUGAGCUGGAGAGCACCAACAGACGCUAUACCAAGAGGGACUGCAGCACUUUCCUCAGAACUAGUGAGACGGGCAUUGUGGACCAGGUCAUGGUCACUCUCAACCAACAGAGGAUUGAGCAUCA | 0.254
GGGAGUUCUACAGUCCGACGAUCGCCACCAGAUCCCAGAAACAUGACCCUUGCUGCCUACAAAGAGAAGAUGAAGGAGCUCCCACUAGUGUCCUUGUUCUGCUCCUGCUUCCUGGCCGAUCCCCUGAAUAAGUCGUCCUACAACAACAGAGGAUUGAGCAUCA | 0.96
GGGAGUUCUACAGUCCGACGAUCACAGUUAUAUUGUUGAGUUUCAUUUUCAUAUAUUCUUAUGGUGUCUGCUUGCCUGUGUCUUUUAGUAAAAUAAAAUAAGCCUUUGAAAAUAUUUUAGCAUGGUAUUUAACAUUUUCUAAACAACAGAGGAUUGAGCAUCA | 2.68

Study 4
Target: Histone acetyltransferase KAT6A, winged helix 2, GST fusion (KAT6A, Homo sapiens, UniProt Q92794, residues 85-181)
Method: protein binding microarray
Molecule type: double-stranded DNA, one strand shown
Matrix: in vitro
Concentration: not given
Notes: 8-mer, flanks averaged, mean of 2 arrays, mostly near background
Relative to: not given
Reading: higher = stronger binding
Target sequence (chain): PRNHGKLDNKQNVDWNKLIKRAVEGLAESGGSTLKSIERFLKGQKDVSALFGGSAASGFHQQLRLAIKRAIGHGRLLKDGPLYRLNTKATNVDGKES
Oligonucleotide | E-score
CTAACCAA | 0.121
CGTCACCC | -0.0505
TTTTAAAA | 0.223
TATGGCAA | 0.0292
AAGCCTTG | -0.0704
CCCAAAAA | 0.0127
TATGAACA | -0.0158
CCCGTTCA | -0.0454
CATTATAA | -0.0216
CGATACAG | -0.0697
CGTATGAG | -0.0811
CTCGAAGA | 0.0798
AGAGAGAC | -0.112
ACATGCCA | -0.141
ACCATCAA | -0.111
AGCGAACT | -0.0449
AATCGTGG | 0.00551

Study 5
Target: CCNF, cyclin fold, Cln2 fusion (human)
Method: yeast growth competition, sequencing
Matrix: yeast
Notes: strong parent motif
Relative to: not given
Reading: higher = stronger binding
Starting sequence: BRCA2 docking peptide (human); PSIKRNLLNEFDR
Change | normalised enrichment score
D12Q | 3.05
P1I | 3.29
L7Q | 1.04
F11G | 2.23
K4G | 0.513
R5W | 0.571
E10R | 1.87
K4Q | 2.49
L8P | 0.69
I3A | 4.05
R5M | 0.38
F11T | 0.78
D12L | 2.25
N9W | 5.41
F11C | 0.155

Study 6
Target: ABI1, truncated, D143A, DHFR fusion (Arabidopsis thaliana)
Method: DHFR PCA, deep sequencing
Matrix: yeast
Notes: methotrexate growth selection, single substitutions
Added: (+)-ABA 4.8 µM
Relative to: wild-type fitted maximum
Reading: higher = stronger binding
Starting sequence: PYL1, truncated, DHFR fusion (Arabidopsis thaliana); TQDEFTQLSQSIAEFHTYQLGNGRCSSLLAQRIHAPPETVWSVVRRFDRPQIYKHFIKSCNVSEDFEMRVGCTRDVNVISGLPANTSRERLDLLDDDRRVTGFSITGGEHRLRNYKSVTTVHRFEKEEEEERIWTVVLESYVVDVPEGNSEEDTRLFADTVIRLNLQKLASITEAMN
Change | relative binding score
T119M | 58.6%
Y141M | -5.28%
V43A | 16.5%
R111H | -2.7%
Y115C | 13.6%
W134F | 79.7%
V76A | 13.3%
F124Q | 43.3%
R49V | 37.6%
T17Y | 22.5%
T173Q | -4.46%
T160S | 24.9%

For quick reference, copied from above (study 1):
Oligonucleotide | E-score
AAAAGGAA | 0.173
CTCTTTGA | 0.0503
AACGCGGT | -0.11
CACTTCTA | -0.0469
CTCTGAGA | -0.052
AATTAGTC | 0.243
CACCCACA | -0.091
CAAACATG | 0.19
ACGTGAAT | -0.0155
AACATTAC | 0.221
AGTCCGCG | -0.224
